Experimental data pooled from the literature.
Lines come from different studies, so protocols differ. ± gives the spread as reported.

CN1CCCNC(=O)c2cccc(c2)C(=O)NCCCN(C)CCCNc2cccc3c2C(=O)c2cccc(c2C3=O)NCCC1
log2 fold change (SAS; RNA-Seq, refers to: SECISBP2 mRNA; 1 µM, 6 h; reference: untreated cells): -1.19

Nc1ncc(-c2cc(-c3cnn(CC(F)(F)F)c3)ncc2F)nc1C(=O)NC1CNCC(F)C1 (stereo not shown)
remaining binding (SYK; KINOMEscan; 1 µM; reference: DMSO control): 100%

COC1CN([C@H]2CC[C@H]([C@@]3(C)Oc4c(Cl)cc(C(=O)NCc5c(SC)cc(C)[nH]c5=O)c(C)c4O3)CC2)C1
log2 fold change (RNA-seq, refers to: HOMER3; human, whole blood; dose not given, 24 h; reference: pretreatment baseline): 1.07

CC(=O)[O-].O.O.O.O.[Ni+2].[O-]c1ccc(Br)cc1C=NCCN1CCOCC1
ferric reducing power (FRAP; 120 µM): 25.9%

CNS(=O)(=O)Nc1nccc(Cc2c(C)c3ccc(Oc4ncccc4F)cc3oc2=O)c1F
IC50 (COV362; cell viability; 7 days): > 1 µM

C[n+]1ccc(/C=N/NC(=O)c2cncc(C(=O)N/N=C/c3cc[n+](C)cc3)n2)cc1
ΔTm (telomeric G4 DNA hybrid-2; FRET melting; 1 µM, DNA 0.2 µM): 5.6 ± 0.1 °C

Cc1ncsc1-c1ccc(C(C)NC(=O)C2CC(O)CN2C(=O)C(NC(=O)CCCCCCCCCCN2CCCC(Nc3ncc(Cl)c(Nc4ccccc4S(=O)(=O)C(C)C)n3)C2)C(C)(C)C)cc1 (stereo not shown)
log2 fold change (22Rv1; RNA-seq, refers to: STK10 mRNA; concentration not given; reference: DMSO): -1.37

C[n+]1cccc2cc(/C=N/NC(=O)C(=O)N/N=C/c3ccc4c(ccc[n+]4C)c3)ccc21
ΔTm (telomeric G4 DNA hybrid-2; FRET melting; 1 µM, DNA 0.2 µM, together with: duplex DNA competitor 10 µM): 2.3 ± 0.4 °C

C=CC(=O)N1[C@H](c2ccc3c(c2)OCO3)c2[nH]c3ccccc3c2C[C@@H]1C(=O)N1CCN(C)CC1
relative co-enrichment (human cyclin E1 N112C-3xFLAG:CDK2; co-IP with TMT proteomics, refers to: SRP9; concentration not given, P49458; reference: wild type DMSO): 115%

C[n+]1ccc(/C=N/NC(=O)c2cccc(C(=O)N/N=C/c3cc[n+](C)cc3)n2)cc1
ΔTm (telomeric G4 DNA hybrid-2; FRET melting; 1 µM, DNA 0.2 µM): 8.5 ± 1 °C

N=C(N)NCCC[C@@H]1NC(=O)[C@H](CCCNC(=N)N)NC(=O)[C@@H](CCCNC(=N)N)NC(=O)[C@@H](CCCNC(=N)N)NC(=O)[C@@H](C(c2ccccc2)c2ccccc2)NC(=O)[C@H](Cc2c[nH]c3ccccc23)NC(=O)[C@@H](C(c2ccccc2)c2ccccc2)NC1=O
reduction of viable cells (Aspergillus fumigatus; Af 293; MIC, 12 h): > 65%

O=C(N/N=C/c1ccc2c(ccc[n+]2Cc2ccccc2)c1)c1ccc2ccc3ccc(C(=O)N/N=C/c4ccc5c(ccc[n+]5Cc5ccccc5)c4)nc3c2n1
ΔTm (telomeric G4 DNA hybrid-2; FRET melting; 1 µM, DNA 0.2 µM, together with: duplex DNA competitor 10 µM): 27.2 ± 5.1 °C

C=CC(=O)Nc1cccc(Cn2ncc3cnc(Nc4cnn(CCOC)c4)nc32)c1
binding (human ABL1(Q252H)-phosphorylated; KINOMEscan; 100 nM; reference: control): 8.9%

Repeated from above:
COC1CN([C@H]2CC[C@H]([C@@]3(C)Oc4c(Cl)cc(C(=O)NCc5c(SC)cc(C)[nH]c5=O)c(C)c4O3)CC2)C1
log2 fold change (RNA-seq, refers to: HOMER3; human, whole blood; dose not given, 24 h; reference: pretreatment baseline): 1.07
